Measurements from different studies.
± marks the error that the study gave.
PPIA: Peptidyl-prolyl cis-trans isomerase A (PPIA, Homo sapiens, UniProt P62937)
Chain of UniProt P62937 (whole entry, looked up): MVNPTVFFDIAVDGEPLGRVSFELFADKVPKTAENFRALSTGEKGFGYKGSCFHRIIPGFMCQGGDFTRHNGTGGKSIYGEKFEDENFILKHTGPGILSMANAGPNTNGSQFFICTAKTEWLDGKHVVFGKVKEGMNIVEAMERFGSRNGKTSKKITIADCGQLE
LGALS4 C-terminal domain: Galectin-4, C-terminal domain (LGALS4, Homo sapiens, UniProt P56470)
Chain of UniProt P56470 (whole entry, looked up): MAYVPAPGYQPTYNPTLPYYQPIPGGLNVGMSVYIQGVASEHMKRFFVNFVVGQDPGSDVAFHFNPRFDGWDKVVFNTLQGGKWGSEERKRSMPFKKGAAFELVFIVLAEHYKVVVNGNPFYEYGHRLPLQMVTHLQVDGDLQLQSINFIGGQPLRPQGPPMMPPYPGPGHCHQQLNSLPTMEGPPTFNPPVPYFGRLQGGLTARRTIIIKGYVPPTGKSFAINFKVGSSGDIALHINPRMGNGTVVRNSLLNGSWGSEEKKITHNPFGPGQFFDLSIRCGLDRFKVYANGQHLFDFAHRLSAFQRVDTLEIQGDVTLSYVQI
LGALS3 R144S: Galectin-3 (LGALS3, Homo sapiens, UniProt P17931, R144S)
Chain of UniProt P17931 (whole entry, unmodified, looked up): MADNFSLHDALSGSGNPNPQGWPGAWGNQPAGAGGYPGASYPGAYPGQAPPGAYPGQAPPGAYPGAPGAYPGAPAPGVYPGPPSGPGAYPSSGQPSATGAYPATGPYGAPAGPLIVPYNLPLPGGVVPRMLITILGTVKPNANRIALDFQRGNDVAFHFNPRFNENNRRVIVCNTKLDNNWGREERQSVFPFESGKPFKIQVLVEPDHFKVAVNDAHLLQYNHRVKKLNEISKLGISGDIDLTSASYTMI
BCL2L1: Bcl-2-like protein 1 (BCL2L1, Homo sapiens, UniProt Q07817)
Chain of UniProt Q07817 (whole entry, looked up): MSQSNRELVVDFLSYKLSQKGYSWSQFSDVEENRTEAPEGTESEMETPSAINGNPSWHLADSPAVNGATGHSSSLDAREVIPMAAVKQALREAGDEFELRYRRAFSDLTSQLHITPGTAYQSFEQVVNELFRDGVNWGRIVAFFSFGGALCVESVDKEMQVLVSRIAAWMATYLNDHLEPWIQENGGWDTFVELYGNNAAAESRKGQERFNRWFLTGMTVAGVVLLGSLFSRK
Chain of UniProt Q9LFP6 (whole entry, looked up): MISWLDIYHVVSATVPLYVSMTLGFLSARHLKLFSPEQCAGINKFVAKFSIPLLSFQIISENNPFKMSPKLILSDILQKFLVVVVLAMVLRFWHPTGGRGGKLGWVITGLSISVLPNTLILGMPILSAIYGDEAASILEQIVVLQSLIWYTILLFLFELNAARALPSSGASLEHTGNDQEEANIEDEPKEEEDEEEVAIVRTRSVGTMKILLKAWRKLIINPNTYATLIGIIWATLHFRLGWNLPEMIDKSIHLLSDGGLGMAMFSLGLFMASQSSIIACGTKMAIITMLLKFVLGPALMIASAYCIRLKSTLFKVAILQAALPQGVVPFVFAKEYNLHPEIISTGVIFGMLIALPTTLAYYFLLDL
Chain of UniProt P98170 (whole entry, looked up): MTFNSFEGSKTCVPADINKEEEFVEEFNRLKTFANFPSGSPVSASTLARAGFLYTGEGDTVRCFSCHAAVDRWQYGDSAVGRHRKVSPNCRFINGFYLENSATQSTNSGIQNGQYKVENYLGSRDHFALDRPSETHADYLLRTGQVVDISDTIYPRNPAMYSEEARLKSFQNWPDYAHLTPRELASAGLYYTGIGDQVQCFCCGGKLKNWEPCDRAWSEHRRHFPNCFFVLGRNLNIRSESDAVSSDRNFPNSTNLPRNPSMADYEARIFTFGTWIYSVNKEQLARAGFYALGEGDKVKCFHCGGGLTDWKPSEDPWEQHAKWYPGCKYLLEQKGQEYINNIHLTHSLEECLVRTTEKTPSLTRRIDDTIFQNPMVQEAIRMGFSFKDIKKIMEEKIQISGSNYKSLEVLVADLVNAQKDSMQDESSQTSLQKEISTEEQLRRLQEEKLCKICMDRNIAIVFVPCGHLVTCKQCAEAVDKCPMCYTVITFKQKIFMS
Chain of UniProt P11511 (whole entry, looked up): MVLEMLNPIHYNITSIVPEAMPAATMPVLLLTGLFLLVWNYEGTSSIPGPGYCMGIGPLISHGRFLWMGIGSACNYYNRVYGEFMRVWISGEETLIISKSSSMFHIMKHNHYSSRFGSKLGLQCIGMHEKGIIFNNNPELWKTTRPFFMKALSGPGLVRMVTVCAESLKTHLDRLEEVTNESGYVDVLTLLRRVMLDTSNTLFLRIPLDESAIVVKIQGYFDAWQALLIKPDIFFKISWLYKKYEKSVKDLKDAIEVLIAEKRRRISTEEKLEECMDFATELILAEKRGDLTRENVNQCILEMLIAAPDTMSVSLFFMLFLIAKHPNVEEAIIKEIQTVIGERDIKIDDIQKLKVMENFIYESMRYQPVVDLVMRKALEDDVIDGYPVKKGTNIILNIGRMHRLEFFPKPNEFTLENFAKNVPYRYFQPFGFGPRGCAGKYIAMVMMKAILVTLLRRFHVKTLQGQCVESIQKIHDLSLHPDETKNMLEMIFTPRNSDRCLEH
Chain of UniProt Q13976 (whole entry, looked up): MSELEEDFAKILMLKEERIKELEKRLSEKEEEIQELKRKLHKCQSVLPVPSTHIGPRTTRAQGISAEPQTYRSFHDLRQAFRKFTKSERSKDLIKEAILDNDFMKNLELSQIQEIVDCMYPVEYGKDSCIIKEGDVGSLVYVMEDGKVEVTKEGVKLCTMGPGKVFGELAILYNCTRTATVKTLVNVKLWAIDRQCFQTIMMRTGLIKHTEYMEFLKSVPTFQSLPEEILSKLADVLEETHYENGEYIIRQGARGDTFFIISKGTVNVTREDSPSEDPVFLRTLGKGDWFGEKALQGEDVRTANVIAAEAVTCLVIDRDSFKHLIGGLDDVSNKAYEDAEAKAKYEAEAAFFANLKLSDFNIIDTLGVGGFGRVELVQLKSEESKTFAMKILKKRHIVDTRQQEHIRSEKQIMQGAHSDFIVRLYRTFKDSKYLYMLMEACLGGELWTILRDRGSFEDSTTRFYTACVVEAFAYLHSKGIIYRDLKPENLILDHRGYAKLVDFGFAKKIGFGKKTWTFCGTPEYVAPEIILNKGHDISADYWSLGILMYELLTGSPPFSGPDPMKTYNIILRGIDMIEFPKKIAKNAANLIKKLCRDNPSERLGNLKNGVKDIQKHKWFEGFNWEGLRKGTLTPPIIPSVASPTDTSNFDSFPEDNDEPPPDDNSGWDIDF
Chain of UniProt P40337 (whole entry, looked up): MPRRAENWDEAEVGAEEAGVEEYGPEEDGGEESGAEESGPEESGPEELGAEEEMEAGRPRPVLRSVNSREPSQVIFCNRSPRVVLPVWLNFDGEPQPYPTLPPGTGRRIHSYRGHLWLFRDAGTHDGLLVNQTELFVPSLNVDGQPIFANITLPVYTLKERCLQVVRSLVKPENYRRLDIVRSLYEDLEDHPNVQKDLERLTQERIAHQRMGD
Chain of UniProt Q9BQB4 (whole entry, looked up): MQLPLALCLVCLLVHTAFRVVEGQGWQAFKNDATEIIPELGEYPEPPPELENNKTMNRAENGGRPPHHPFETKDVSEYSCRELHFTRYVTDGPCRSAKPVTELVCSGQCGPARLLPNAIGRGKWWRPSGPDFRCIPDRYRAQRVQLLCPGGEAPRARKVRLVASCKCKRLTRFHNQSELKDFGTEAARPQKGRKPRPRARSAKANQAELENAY
Chain of UniProt P27694 (whole entry, looked up): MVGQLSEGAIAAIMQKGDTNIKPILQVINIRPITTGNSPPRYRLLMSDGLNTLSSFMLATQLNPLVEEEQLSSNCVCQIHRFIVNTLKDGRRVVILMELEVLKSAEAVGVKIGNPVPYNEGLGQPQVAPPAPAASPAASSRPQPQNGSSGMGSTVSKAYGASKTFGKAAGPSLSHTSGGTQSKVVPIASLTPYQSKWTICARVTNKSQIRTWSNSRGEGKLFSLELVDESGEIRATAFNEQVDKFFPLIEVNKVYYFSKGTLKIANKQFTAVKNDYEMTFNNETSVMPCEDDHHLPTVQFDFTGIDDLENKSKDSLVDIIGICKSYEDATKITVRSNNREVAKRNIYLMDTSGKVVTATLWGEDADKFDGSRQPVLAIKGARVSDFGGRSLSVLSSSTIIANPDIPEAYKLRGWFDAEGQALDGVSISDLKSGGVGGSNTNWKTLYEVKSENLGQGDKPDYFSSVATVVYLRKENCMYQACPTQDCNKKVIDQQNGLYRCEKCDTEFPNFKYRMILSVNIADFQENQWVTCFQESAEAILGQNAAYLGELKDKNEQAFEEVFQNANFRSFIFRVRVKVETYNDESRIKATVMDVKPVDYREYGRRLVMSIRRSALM
Chain of UniProt P02754 (whole entry, unmodified, looked up): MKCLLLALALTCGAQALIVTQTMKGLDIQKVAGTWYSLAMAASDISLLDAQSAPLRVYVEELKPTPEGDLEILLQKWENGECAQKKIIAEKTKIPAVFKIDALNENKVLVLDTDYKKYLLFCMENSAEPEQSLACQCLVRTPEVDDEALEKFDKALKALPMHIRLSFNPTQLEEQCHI
Chain of UniProt O15297 (whole entry, looked up): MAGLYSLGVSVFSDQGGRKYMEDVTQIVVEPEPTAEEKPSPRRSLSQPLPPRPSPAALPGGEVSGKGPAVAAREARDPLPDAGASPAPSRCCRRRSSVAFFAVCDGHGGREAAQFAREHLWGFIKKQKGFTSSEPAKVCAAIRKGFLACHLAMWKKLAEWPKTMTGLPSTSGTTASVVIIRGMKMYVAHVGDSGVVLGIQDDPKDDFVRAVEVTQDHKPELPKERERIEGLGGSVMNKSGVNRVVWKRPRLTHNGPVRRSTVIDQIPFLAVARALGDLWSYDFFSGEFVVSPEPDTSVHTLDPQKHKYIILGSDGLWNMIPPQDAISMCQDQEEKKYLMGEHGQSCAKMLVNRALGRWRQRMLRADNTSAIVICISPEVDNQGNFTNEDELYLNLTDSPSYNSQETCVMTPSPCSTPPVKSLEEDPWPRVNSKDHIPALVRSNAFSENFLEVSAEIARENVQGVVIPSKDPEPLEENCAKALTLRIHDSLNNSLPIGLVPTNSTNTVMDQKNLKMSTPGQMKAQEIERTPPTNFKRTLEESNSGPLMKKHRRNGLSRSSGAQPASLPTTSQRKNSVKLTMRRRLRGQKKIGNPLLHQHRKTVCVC

| SMILES | target | assay | test system | conditions | Kd |
| --- | --- | --- | --- | --- | --- |
| Cc1ccc(C(=O)Nc2ccc(S(=O)(=O)O)c3cccc(S(=O)(=O)O)c23)cc1NC(=O)Nc1cc(C(=O)Nc2ccc(S(=O)(=O)O)c3cccc(S(=O)(=O)O)c23)ccc1C | E3 ubiquitin-protein ligase XIAP, BIR1 domain (XIAP, Homo sapiens, UniProt P98170) | microscale thermophoresis | – | 24 °C | 9 ± 2 µM |
| Cc1ccnc(NS(=O)(=O)c2ccc(NC(=O)c3cc(-c4ccccc4C)nc4ccccc34)cc2)n1 | PPIA | binding, SPR | – | pH 7.4 | 6.34 µM |
| CC(=O)N[C@@H]1[C@@H](O[C@@H]2O[C@H](C(=O)O)[C@@H](O[C@@H]3O[C@H](COS(=O)(=O)O)[C@@H](OS(=O)(=O)O)[C@H](O[C@@H]4O[C@H](C(=O)O)[C@@H](OS(=O)(=O)O)[C@H](OS(=O)(=O)O)[C@H]4OS(=O)(=O)O)[C@H]3NC(C)=O)[C@H](OS(=O)(=O)O)[C@H]2OS(=O)(=O)O)[C@H](OS(=O)(=O)O)[C@@H](COS(=O)(=O)O)O[C@H]1N=[N+]=[N-] | Sclerostin (SOST, Homo sapiens, UniProt Q9BQB4) | ligand displacement, FP | – | – | 2.8 µM |
| C[Si](C)(C)c1cc2c3c(c1)O[C@H](CO)[C@H](O)[C@@H]3OC2 | LGALS4 C-terminal domain | binding, competitive fluorescence polarization | – | 20 °C | > 6000 µM |
| COc1ccc2nc3cc(Cl)ccc3c(NCCCCNc3nc(N)nc(N)n3)c2c1 | DNA duplex with (CCTG)2 step | binding, ITC | – | binding site 2 | 0.11 µM |
| COc1c(F)c(F)c(C(=O)N[C@H]2[C@@H](O)[C@@H](CO)O[C@@H](S[C@@H]3O[C@H](CO)[C@H](O)[C@H](NC(=O)c4c(F)c(F)c(OC)c(F)c4F)[C@H]3OS(=O)(=O)O)[C@@H]2O)c(F)c1F | LGALS3 R144S | cell-free assay, FP | – | – | 2.9 µM |
| Cc1cnccc1CN1C[C@@H](c2cc(F)c(F)c(F)c2)CC1=O | SV2A (Homo sapiens, UniProt Q7L0J3) | saturation binding | Alzheimer disease, pooled, frontal cortex P2 fraction | – | 0.0051 µM |
| Cc1cc(CC(=O)N2C[C@H](O)C[C@H]2C(=O)NCc2ccccc2)on1 | von Hippel-Lindau disease tumor suppressor, with Elongin B/C (VHL, Homo sapiens, UniProt P40337) | isothermal titration calorimetry | – | 25 °C | 600 ± 17 µM |
| O=C(Nc1ccc(C(F)F)cc1)[C@H](CC1CCCCC1)Nc1nn2c(=O)ccnc2s1 | PPM1D (Homo sapiens, UniProt O15297) | binding, SPR | – | – | 0.0088 µM |
| CC[C@H](C)[C@H](NC(=O)[C@H](CCC(=O)O)NC(=O)[C@@H]1CCCN1C(=O)[C@H](CCCNC(=N)N)NC(C)=O)C(=O)N[C@@H](Cc1c[nH]c2ccccc12)C(=O)N[C@@H](C)C(=O)N[C@@H](C)C(=O)N[C@@H](CCC(N)=O)C(=O)N[C@@H](CCC(=O)O)C(=O)N[C@@H](CC(C)C)C(=O)N[C@@H](CCC(N)=O)C(=O)N[C@@H](CCCNC(=N)N)C(=O)N[C@@H](CC(N)=O)C(=O)NCC(=O)N[C@@H](CC(=O)O)C(=O)N[C@@H](CCC(=O)O)C(=O)N[C@@H](Cc1ccc(O)cc1)C(=O)N[C@@H](CC(N)=O)C(=O)N[C@@H](C)C(=O)N[C@@H](Cc1ccc(O)cc1)C(=O)N[C@@H](Cc1ccc(O)cc1)C(=O)N[C@@H](C)C(=O)N[C@@H](CCCNC(=N)N)C(=O)N[C@@H](CCCNC(=N)N)C(=O)N[C@H](C(=O)N[C@@H](Cc1ccccc1)C(=O)N[C@@H](CC(C)C)C(=O)N[C@@H](CC(N)=O)C(N)=O)C(C)C | BCL2L1 | binding, flow cytometry | – | pH 8 | 0.04 µM |
| C#Cc1ccc2c(=O)[nH]nc(Cc3ccc(F)c(C(=O)N4CCN(C(=O)C=C)CC4)c3)c2c1 | PARP16 (Homo sapiens, UniProt Q8N5Y8) | covalent labelling, click chemistry in-gel fluorescence | HAP1 | 2 h | 0.0516 µM |
| CCN(CC)C(=O)C1CCCN(C(=O)Nc2ccc3nc(-c4ccco4)c(-c4ccco4)nc3c2)C1 (stereo not shown) | PPIA | binding, SPR | – | – | 7.09 µM |
| Oc1cc(O)c2c(c1)OC(c1ccc(O)c(O)c1)C(OC1(c3ccc(O)c(O)c3)Oc3cc(O)cc(O)c3C(O)C1O)C2 (stereo not shown) | PDE5A (Homo sapiens, UniProt O76074) | binding, MST | – | – | 7.77 µM |
| CC(C)C1=CC23CCC4C(C)(C(=O)O)CCCC4(C)C2CC1C(C(=O)O)C3C(=O)O (stereo not shown) | Replication protein A 70 kDa DNA-binding subunit, DBD-F (RPA1, Homo sapiens, UniProt P27694) | fluorescence anisotropy competition | – | 25 °C | 9 µM |
| CO[C@H](C(=O)[C@@H](O)[C@@H](C)O)[C@@H]1Cc2cc3cc(O[C@H]4C[C@@H](O[C@H]5C[C@@H](O)[C@H](O)[C@@H](C)O5)[C@H](O)[C@@H](C)O4)c(C)c(O)c3c(O)c2C(=O)[C@H]1O[C@H]1C[C@@H](O[C@H]2C[C@@H](O[C@H]3C[C@](C)(O)[C@H](O)[C@@H](C)O3)[C@@H](O)[C@@H](C)O2)[C@H](O)[C@@H](C)O1 | histone H2A-H2B dimer | fluorescence quenching titration | – | pH 7.0, 25 °C, no Mg2+ | 0.78 ± 0.03 µM |
| CC(=O)O[C@H]1OC[C@@H]2C=C([C@@]3(C)CCCC(C)(C)C3)CC[C@H]12 | PPIA | binding, SPR | – | pH 4.5 | ~3 µM |
| O=C(O)Cc1c[nH]c2ccccc12 | PIN8 (Arabidopsis thaliana, UniProt Q9LFP6) | cell-free assay | – | – | 40 µM |
| O=C(O)C1OC(OC2C(C(=O)O)OC(OC3C(C(=O)O)OC(OC4C(C(=O)O)OC(OC5C(C(=O)O)OC(O)C(O)C5O)C(O)C4O)C(O)C3O)C(O)C2O)C(O)C(O)C1O (stereo not shown) | Beta-lactoglobulin (LGB, Bos taurus, UniProt P02754, A134V/G80D) | STD NMR titration | – | pH 2.65, 37 °C, with: protein 20 µM | 228 ± 30 µM |
| CCc1nc2cc3ccccc3cc2cc1C(=O)N1CCC[C@H]1C(=O)N[C@@H](C/C=C/C[C@H](NC(=O)[C@@H]1CCCN1C(=O)c1cc2cc3ccccc3cc2nc1CC)C(=O)N[C@@H](CCCCN)C(=O)NCCCN)C(=O)N[C@@H](CCCCN)C(=O)NCCCN | (CUG)10 RNA | SPR | – | pH 7.4 | 0.068 µM |
| COc1cc(C(=O)c2[nH]c(N)nc2-c2cccs2)cc(OC)c1OC | tubulin, goat | binding, tryptophan fluorescence | – | pH 6.8, 25 °C | 1.3 ± 0.4 µM |
| COc1cccc(C(=O)N[C@H]2[C@@H](O)[C@@H](CO)O[C@@H](S[C@@H]3O[C@H](CO)[C@H](O)[C@H](NC(=O)c4cccc(OC)c4)[C@H]3OS(=O)(=O)O)[C@@H]2O)c1 | LGALS3 R144S | cell-free assay, FP | – | – | 0.55 µM |
| CC#Cc1cc2c3c(c1)O[C@H](CO)[C@H](O)[C@@H]3OC2 | LGALS4 C-terminal domain | binding, competitive fluorescence polarization | – | 20 °C | 1100 ± 22 µM |
| Nc1ncnc2c1ncn2[C@@H]1O[C@H](CO)[C@@H](O[C@H]2O[C@H](CO)[C@@H](OP(=O)(O)O)[C@H](OP(=O)(O)O)[C@H]2O)[C@H]1O | Inositol 1,4,5-trisphosphate-gated calcium channel ITPR1, N-terminal region (Itpr1, Rattus norvegicus, UniProt P29994, del318-332/R568Q) | [3H]IP3 competition binding | N-terminal fragment R568Q | Tris-EDTA medium | 0.0137 µM |
| C1=[N+]2CCCC[N+]3=Cc4ccc5[n]4[Au-]23[n]2c1ccc2-c1nc2ccccc2nc1-5.F[P-](F)(F)(F)(F)F | 20-bp DNA duplex | SPR | – | pH 7.4, 37 °C | 3.4 µM |
| CC[C@H](C)[C@H](NC(=O)[C@H](CCC(=O)O)NC(=O)[C@@H]1CCCN1C(=O)[C@H](CCCNC(=N)N)NC(C)=O)C(=O)N[C@@H](Cc1c[nH]c2ccccc12)C(=O)N[C@@H](CC(=O)O)C(=O)N[C@@H](C)C(=O)N[C@@H](CCC(N)=O)C(=O)N[C@@H](CCC(=O)O)C(=O)N[C@@H](CC(C)C)C(=O)N[C@@H](CCCCN)C(=O)N[C@@H](CCCNC(=N)N)C(=O)N[C@@H](Cc1ccccc1)C(=O)NCC(=O)N[C@@H](CC(=O)O)C(=O)N[C@@H](CCC(=O)O)C(=O)N[C@@H](Cc1ccccc1)C(=O)N[C@@H](CC(N)=O)C(=O)N[C@@H](C)C(=O)N[C@@H](Cc1ccc(O)cc1)C(=O)N[C@@H](Cc1ccc(O)cc1)C(=O)N[C@@H](C)C(=O)N[C@@H](CCCNC(=N)N)C(=O)N[C@@H](CCCNC(=N)N)C(=O)N[C@H](C(=O)N[C@@H](Cc1ccccc1)C(=O)N[C@@H](CC(C)C)C(=O)N[C@@H](CC(N)=O)C(N)=O)C(C)C | BCL2L1 | binding, flow cytometry | – | pH 8 | 0.011 µM |
| CN(C)c1ccc2c(-c3ccc(C(=O)NCCCC[C@@H](NC(=O)[C@@H](CCCNC(=N)N)NC(=O)[C@@H](CCCNC(=N)N)NC(=O)[C@@H](CCCNC(=N)N)NC(=O)[C@@H](CCCNC(=N)N)NC(=O)[C@@H](CCCNC(=N)N)NC(=O)[C@@H](CCCNC(=N)N)NC(=O)CCCCCNC(=O)[C@@H](CCCNC(=N)N)NC(=O)CCCCCNC(=O)c4ccc(-c5ccnc(N)n5)s4)C(N)=O)cc3C(=O)[O-])c3ccc(=[N+](C)C)cc-3oc2c1 | cGMP-dependent protein kinase 1, isoform alpha (PRKG1, Homo sapiens, UniProt Q13976) | binding, fluorescence anisotropy | – | no Mg2+, with: 1 µM cGMP | 0.0027 µM |
| COc1c(F)c(F)c(C(=O)N[C@H]2[C@@H](O)[C@@H](CO)O[C@@H](S[C@@H]3O[C@H](CO)[C@H](O)[C@H](NC(=O)c4c(F)c(F)c(OC)c(F)c4F)[C@H]3O)[C@@H]2O)c(F)c1F | Galectin-3 (LGALS3, Homo sapiens, UniProt P17931) | binding, ITC | – | – | 0.604 µM |
| CN(C)CCO/N=C1/C=C2CCC3C(CC[C@]4(C)/C(=C/c5ccccn5)CCC34)[C@@]2(C)CC1 (stereo partly shown) | Aromatase (CYP19A1, Homo sapiens, UniProt P11511) | binding, absorbance | – | – | ~0.2 µM |

Excerpt of the above:
| SMILES | target | assay | test system | conditions | Kd |
| --- | --- | --- | --- | --- | --- |
| Cc1ccc(C(=O)Nc2ccc(S(=O)(=O)O)c3cccc(S(=O)(=O)O)c23)cc1NC(=O)Nc1cc(C(=O)Nc2ccc(S(=O)(=O)O)c3cccc(S(=O)(=O)O)c23)ccc1C | E3 ubiquitin-protein ligase XIAP, BIR1 domain (XIAP, Homo sapiens, UniProt P98170) | microscale thermophoresis | – | 24 °C | 9 ± 2 µM |
| COc1c(F)c(F)c(C(=O)N[C@H]2[C@@H](O)[C@@H](CO)O[C@@H](S[C@@H]3O[C@H](CO)[C@H](O)[C@H](NC(=O)c4c(F)c(F)c(OC)c(F)c4F)[C@H]3OS(=O)(=O)O)[C@@H]2O)c(F)c1F | LGALS3 R144S | cell-free assay, FP | – | – | 2.9 µM |
